Results collected from several papers.
Parts stem from different laboratories: compare values within a part only.

Sample 1
Target: Sal-like protein 4, full length isoform B (SALL4, Homo sapiens, UniProt Q9UJQ4-2, residues 1-616)
Technique: universal PBM
Form: double-stranded DNA, one strand shown
Matrix: in vitro
Tested at: not given
Notes: 8-mer, flanks averaged, mean of replicates
Reading: higher = stronger binding
Measurement: E-score
Construct (chain): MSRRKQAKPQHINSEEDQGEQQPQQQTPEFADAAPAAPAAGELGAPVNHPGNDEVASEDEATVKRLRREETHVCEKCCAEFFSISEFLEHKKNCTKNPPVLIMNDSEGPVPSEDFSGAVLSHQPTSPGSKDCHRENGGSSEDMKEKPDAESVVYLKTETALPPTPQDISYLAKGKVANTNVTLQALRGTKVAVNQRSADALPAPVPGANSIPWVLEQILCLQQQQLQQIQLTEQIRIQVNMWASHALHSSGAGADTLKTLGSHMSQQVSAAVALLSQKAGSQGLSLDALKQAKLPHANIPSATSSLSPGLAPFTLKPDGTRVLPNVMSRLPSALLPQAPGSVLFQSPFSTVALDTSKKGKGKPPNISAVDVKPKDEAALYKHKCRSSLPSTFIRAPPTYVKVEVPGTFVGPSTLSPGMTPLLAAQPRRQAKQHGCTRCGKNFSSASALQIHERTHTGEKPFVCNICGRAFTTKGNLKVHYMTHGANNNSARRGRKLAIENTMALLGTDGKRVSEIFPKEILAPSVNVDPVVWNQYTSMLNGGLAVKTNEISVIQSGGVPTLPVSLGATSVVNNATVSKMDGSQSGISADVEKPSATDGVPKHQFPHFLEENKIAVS
AGTGTGAA: 0.185
CATTGGGC: -0.165
CTAAATAC: 0.218
CGATTATC: 0.00877
AAATTAGA: 0.268
CCGCTAAA: -0.103
CTTAGACC: -0.0249
CATGGCGA: -0.216
ACCTCTTG: -0.19
AAGTTCAG: 0.0688
ATGGAGGA: 0.0734
AGGAAACA: 0.0168
ACAACCCA: -0.0429
ATGCGAAG: 0.19
CTGGGGGC: -0.364
ACCCTGGA: -0.166
GCGGCAAC: -0.245
CCGCTCAG: -0.248
AACTATAC: 0.268
ACTCCTAG: -0.116
CGCTAGCA: -0.0874
CGAGTTGA: -0.16
CGCCTGTC: -0.275
CCCCACAG: -0.267
CCTGCTTA: -0.00325

Sample 2
Target: RNA binding protein fox-1 homolog 2, RRM domain, GST-SBP tag (RBFOX2, Homo sapiens, UniProt O43251-10, residues 100-194)
Technique: RNA Bind-n-Seq
Form: RNA
Matrix: in vitro
Tested at: 365 nM
Notes: natural RNA segment, single round, ends assumed
Reference: no-protein control
Reading: higher = stronger binding
Measurement: RBNS enrichment (R)
Constant ends, left off below: GGGAGUUCUACAGUCCGACGAUC … UGGAAUUCUCGGGUGCCAA
UUAUGAGAUGUAUCUUUUGCUCUCUCUUGCUCUCUUAUUUGUACCGGUUUUUGUAUAUAAAAUUCAUGUUUCCAAUCUCUCUCUCCCUGAUCGGUGACAGUCACUAGCUU: 0.948
CACCCAAGGCCUUCUCCUGCCUCCUGUCCACUGCCAGCGUCCUCAUUUGUCAUCGGUCAUUAGCCUCCCUCUGUGCUCCCUGGCACUCUUAAUAUAGAUUGAACCAGAAA: 0.895
AGAGAUGACUCACUCACUCCGUGUGUUCUACAGUGCUGAGGUGGAUGACCUGGCCUACAGCAAAGGACCUUGAGCUUUAAAGUAUCACCUCCAUGGAAGCGGGGGCAUGC: 2.88
AUGGCUGUCUCAGCACAAUACUCAACAUAACUGCAGAACUGAUGUGGCUCAGGCACCCUGGUUUUAAUUCCUUGAGGAUCUGGCAAUUGGCUUACGCAAAAGGUCACCAU: 0.623
AAGUAGCGUGGGCUAGCCAAUCUGCCGUUCAUGGUGUAUUGUAAACUCCGAAUUCCAUAUGUAAUAGGAUGCAAGUCUAAGCGUUUCAUGUGGACAUAAAUGUAUCUAAA: 0.453
CCUUUCUUUUCUUUCUUUUUUAAACUCUCUUUUCUCUGCUUCCCUUCCUUUGGGUUUCCAGAGUCUCUGGGAGAAGAAGGGUGGGCGGGUGGACCCAGAGCGACCCAGAU: 0.497
GAUGAUUCUCCCAAAAAGCAGAAAAAGAAAUGUCAGGUUAGAAGGACCCAAGUUCUAGGUGCACACUUUUGCAAGCUUCCUACAAGCCCAGACUGACUUACACUAACCUA: 0.871
ACCAGCGCAGAGCGGGGGCAGCCUGCCCCGCUGUAGCACAGGAGCAAUGGUGUAGCGUCUUCCAAGGCCUUACUUUUUUUUCAGAAUGCUUUAAGUGUUGGCUGUAUGUG: 10.1
AGCAGCAGUUCUAUCAGUGGUGCCACUGAAACUGGGUAUAUUUAUGAUUUCUUUCAGCGUUAAAAAGAAACAUAGUGUUGCCCUUUUUCUUAAAGCAUCAGUGAAAUUAU: 0.542
GGACAUGGGGGUGUGCAGAAGUUCUGUUCUUAGUGAGAAUGGCUGGCCUGAGAAUCCAGCUCACCUCCUCUGCCCACAGUCUGGACUGCUUGUGGGAAGGCCAUCUCCUC: 0.801
GGUGAGACGGCUGUUUCCAUCAAGAACUCCUAGCACUGCUGUAAAUAUCAUGGUGCCUACUGGAAGGGAAUGUAGAUGCUAUGCAUUUUGGAAAUAAUCUGCAUCUGUUA: 3.05
GGGAUGCCUCUUUUCCUCGCGAGGCGGCCAUCCUCUCUGGACACUGGCCUCGCCGUCUCUUUCCUCCCUCCACACACCCACUUAUUUCCUUAACCUUCUUUCCCAAUGGA: 0.418

Sample 3
Target: Ras GTPase-activating protein-binding protein 1, full length (G3BP1, Homo sapiens, UniProt Q13283)
Sequence of UniProt Q13283 (whole entry, looked up): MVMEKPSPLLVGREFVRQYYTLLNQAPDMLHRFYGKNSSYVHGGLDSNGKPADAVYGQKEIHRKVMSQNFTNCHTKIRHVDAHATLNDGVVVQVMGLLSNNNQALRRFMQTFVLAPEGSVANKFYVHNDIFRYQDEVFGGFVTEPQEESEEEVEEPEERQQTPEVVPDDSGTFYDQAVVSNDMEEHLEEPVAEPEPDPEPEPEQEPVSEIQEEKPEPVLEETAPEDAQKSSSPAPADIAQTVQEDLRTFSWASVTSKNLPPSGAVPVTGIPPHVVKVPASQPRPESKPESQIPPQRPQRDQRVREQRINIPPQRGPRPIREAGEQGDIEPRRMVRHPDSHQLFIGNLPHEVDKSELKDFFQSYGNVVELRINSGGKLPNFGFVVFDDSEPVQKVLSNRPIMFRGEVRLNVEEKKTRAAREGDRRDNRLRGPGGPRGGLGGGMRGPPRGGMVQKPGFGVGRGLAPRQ
Technique: RNA Bind-n-Seq
Form: RNA
Matrix: in vitro
Tested at: 200 nM
Notes: whole 134-nt RNA, ends assumed
Together with: 150 mM LiCl
Reference: input library
Reading: higher = stronger binding
Measurement: log2 enrichment
Each molecule: 7-deaza-guanosine replaces G
Constant ends, left off below: GGGAGUUCUACAGUCCGACGAUC … UGGAAUUCUCGGGUGUCAAGG
UGGGAGGUGGAUUUUGUUUAUUUUUUUAGCUCAUUUCCAGGGGUGGGAAUUUUUUUUUAAUAAGUGUCAUGAAUAAAGUUGUUUUUGAAA: -0.305
AGUCCUGUGCUACACAUCGUAUGUACCGAAUCGGGAAAAAAAGGGAAAGGGUUUGGGAAAGUAUUAUGUUACGCCGUUCGGAUCUGCACU: -2.4
UUCCCUGUACCGGCAGAGUUCACAAACACAUUUGAAGAGGCUUUUUCUCAGGAUUCUUAACCUUCCCAAAGGAAGUCCCAUGGAUGGGUU: -1.13
UCCUGUGCUACACAUCGUAUGUACCGAAUCGGGUUUUUGGGUUUUUUUGGGUUUUUGGGAAAGUAUUAUGUUACGCCGUUCGGAUCUGCA: 0.682
GCAGGAAGUAAAAACAAAUGGAAAUGCCUCGGAUAGUGGCAGGGGUGGGGGUUGCUAAGGAAAGGGUGGGAUGGGAGUGGGUAAAGAGUU: 0.17
UCAUCCUUUUUAAAUUUUUUUUUUUUUUUUGAGACGGUCUCACUCUCACCCAGGCUGGAUUGCAGUGGUGUGAUCUCGACCAACUGCAAC: 0.915
UGGGCAAUGUGUCGGCUGCAUGCACGAGCCAGGAACUGCGCAGCCUCUUCGAGCGCCGCGGACGCGUCAUCGAGUGUGACGUGGUGAAAG: -0.179
UGGCCCUGGUGGCAUGCGGGGAGGAAGAGGUGGCCUCAUGGAUCGUGGUGGUCCCGGUGGAAUGUUCCGAGGUGGCCGUGGUGGAGACAG: 0.0215
UAACUUUAGAGGAGGAUCUGAUGGAUAUGGCAGUGGACGUGGAUUUGGGGAUGUCUAUAAUGGGUAUGGAGGAGGACCUGGAGGUGGCAA: -0.0129
GUCCUGUGCUACACAUCGUAUGUACCGAAUCGGGGUGGGGUUUGGGGAAAAAAAGGGGAAAGUAUUAUGUUACGCCGUUCGGAUCUGCAC: -0.697
UUCGACGGCGCCGGGCGAGUGGCUGUUGAGCGGCGCCGCGGGAGUUCCGCAGGUUUCCCGUGUUCGCAGCGGAGCCGGAGGCCAGCUGAA: -1.6

Sample 4
Target: Histone acetyltransferase KAT6A, both winged helices, GST fusion (KAT6A, Homo sapiens, UniProt Q92794, residues 1-181)
Technique: protein binding microarray
Form: double-stranded DNA, one strand shown
Matrix: in vitro
Tested at: not given
Notes: 8-mer, flanks averaged, mean of 2 arrays, mostly near background
Reference: not given
Reading: higher = stronger binding
Measurement: E-score
Residues (chain): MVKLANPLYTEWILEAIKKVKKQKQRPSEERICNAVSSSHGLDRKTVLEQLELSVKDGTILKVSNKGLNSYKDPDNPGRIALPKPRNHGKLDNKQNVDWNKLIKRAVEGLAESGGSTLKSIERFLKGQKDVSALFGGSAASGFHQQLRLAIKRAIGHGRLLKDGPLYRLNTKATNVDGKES
AACTGCGT: 0.16
CGATTCAC: 0.0117
ACGGAGTA: 0.151
AGCGACGG: 0.312
TCGGAAGA: 0.0586
GATCTTCC: 0.0489
CGTTTATA: 0.109
ATCAAGTC: -0.0338
GGTACGAC: 0.00848
ATTTCCCC: -0.1
AGGCTCTG: -0.222
CCTCTGCG: -0.0197
CTGAGTGA: -0.135
CGAGGTTC: -0.0126
ACACGTAG: -0.066
AAGTTAAA: -0.109
ACAATTGC: -0.0508
ACCAGCAG: -0.205
ACGGAGTC: 0.105
GGTTCTAA: -0.05
ACGGGGTG: 0.153
AAGCGCAG: 0.258
CACCCTCC: -0.0983
AGTGGGGC: -0.18
ACTAGATA: -0.022

Sample 5
Target: RING finger protein unkempt homolog, zinc fingers 1-6, SBP tag (UNK, Homo sapiens, UniProt Q9C0B0, residues 30-357)
Sequence of UniProt Q9C0B0 (30-357, looked up): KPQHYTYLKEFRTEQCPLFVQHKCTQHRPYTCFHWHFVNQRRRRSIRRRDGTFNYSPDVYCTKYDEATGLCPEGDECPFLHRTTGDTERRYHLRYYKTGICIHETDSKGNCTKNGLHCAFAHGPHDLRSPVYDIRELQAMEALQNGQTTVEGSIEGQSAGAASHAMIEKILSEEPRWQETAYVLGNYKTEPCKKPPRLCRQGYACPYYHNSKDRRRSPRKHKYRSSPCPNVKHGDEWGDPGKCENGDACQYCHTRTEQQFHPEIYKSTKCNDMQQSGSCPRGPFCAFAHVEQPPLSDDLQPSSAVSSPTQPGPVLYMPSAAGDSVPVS
Technique: RNA Bind-n-Seq
Form: RNA
Matrix: in vitro
Tested at: 100 nM
Notes: RNA with constant flanks, vertebrate orthologous sites, ends assumed
Reference: input RNA pool
Reading: higher = stronger binding
Measurement: bound/input enrichment
Constant ends, left off below: GGGAGUUCUACAGUCCGACGAUC … CAACAGAGGAUUGAGCAUCA
UUCUCCUGGGUUAGAGCGGGGUCUCCCUCUACAUCUCCCGUGAGGGGAAAAAGCCCCAAAUAGUCCUUACACAUCUGAUUAGAGUGUUCUGUCUCUGCCAUCUACUUGUACAUAUGCGUC: 0.788 ratio
GCUGCGAUCCCUUCAAUAUACACAGAAAACUAUCGAAGAAAAACUUGCGAGCAAUUGACUUGGAUGAUGCAACUUUUCUAAGCGCCAAGUUUGGAAGGCAGUUUGUACCUGGUUGGAAGC: 0.229 ratio
GUUUGUUUUUAAUUUCAAGCAAAAAAAAAUCUUAUUGUACUUGAAUGUGUCCUGUUUUGUUAGCACACCUAGACUUGCUGUAACUGUACUCAUGUCCCAGUAUGUACGUUCUUUCUAUGA: 0.666 ratio
AAGCCAUCUUUUCCACAUUUUCUGUAAAUAAUGGAUAAUCAUUUUAAAAAAUUUUAUUUUUAGUGCUGUUUUAACAAUGUAGAUAGAUCAUAAAUGUACUUGCUGAAUUCAAUCAUUUUU: 0.871 ratio
AAGGGCUGUGUAGAGUAGCUGUGUUCUUCUUAGGAUGUUGCUUCUUGAUUUUCUUUUUUUAAGGGGUGGGUCAGGGUUGUGACACACCAGCCCAGGCAAGAGCUGCUGCGGGUCACCUCA: 0.551 ratio
ACACUUAUAUUGUGGCAUAUAGUCAACAUGGAAGUAGACCAGCUCUGCUGAUUUGAAAUUUAGAUUUUUUUUUAAUUAUGUACUGGGGACAGGUUUUUGUCGCUUUACAUUGCUUCCUAG: 4.93 ratio
GGGAGAUAUUGAAUAGUAUUAAACAUUUUCGUCUUCCUUUACCUUUUAUCCCCUAAUACCUAGUCUACUUUUUUAAAUUUCAGACUUCACUGCUCUUUGAAUUGAUAAUUCCAAUUUUCA: 1.73 ratio
GUUCAAACCUGUGGUACCUUGGCCUCAUGUUGAAGGCGUGGAAGUGGACUUGGAAUCCAUUCGAAGGAAAAAUAAGGCCAAAAAUGAACUAAAUCAGCAUGGUGGUGGUGAUAACAAUCA: 0.46 ratio
AUGUAGUUUGUUUUUAAUUUCAAGCAGAAUCUUAUUGUACUUGAAUGUGCCCUGUUUUGUUAGCACACCUAGACUUGCUGUAACUGUACUCAUGUCCCAGUAUGUACGUUCUUUCUAUGA: 1.03 ratio
AAAUUAUAGCAGGAGAGCCAAGCAGUAGCAUUGGGUUUUUUUUGUAAAUGUAAAAGUGAUUAGAUUCACACUUUGUUUCCUUAUUCAGUUUUAAAAAUAAAAAAAUACCUCAGUGCUGUU: 0.338 ratio
UAAAGAAGAGAUUCCUGUGGUUUCUAAUAUUUAAUUUGCUCUUUUUAAGAUAUUUCAAUCUGCAUUUCUUUAUAGAAAUGGUAUGCUAGCAUUUCUCUCCUAAGGAGGACUAGUCCUCAU: 0.542 ratio

Some of these lines once more (sample 1):
CCCCACAG: -0.267
CGATTATC: 0.00877
ACTCCTAG: -0.116
CATGGCGA: -0.216
